Measured values collected from several papers.
Protocols differ between the studies behind these lines. “And” joins repeats or separate records; there may be more than shown. ± marks the error that the study gave. Values after ≈ are worked out from the molar mass of the structure shown.
HCRTR1: Orexin/Hypocretin receptor type 1 (HCRTR1, Homo sapiens, UniProt O43613)
Chain of UniProt O43613 (whole entry, looked up): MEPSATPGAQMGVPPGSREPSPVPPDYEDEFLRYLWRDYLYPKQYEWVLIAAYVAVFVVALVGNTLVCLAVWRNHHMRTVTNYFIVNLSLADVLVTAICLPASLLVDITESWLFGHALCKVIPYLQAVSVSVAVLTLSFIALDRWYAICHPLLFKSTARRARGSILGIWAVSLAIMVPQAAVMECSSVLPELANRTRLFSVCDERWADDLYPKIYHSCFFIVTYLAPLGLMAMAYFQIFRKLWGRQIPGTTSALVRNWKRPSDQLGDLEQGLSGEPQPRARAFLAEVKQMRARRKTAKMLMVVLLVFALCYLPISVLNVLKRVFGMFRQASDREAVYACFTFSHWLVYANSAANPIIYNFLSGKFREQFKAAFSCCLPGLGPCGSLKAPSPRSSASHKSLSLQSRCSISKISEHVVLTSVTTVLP

CCCOc1ccc([C@H]2CNC(=O)N2c2ccc3[nH]cnc3c2)cc1
AUC(0-12h) (human volunteers fasted, plasma; oral solution, 10 mg single dose, day 1, geometric mean): 0.0651 µg·h/mL

S=C(NCCCc1c[nH]cn1)NCCCN(Cc1ccc(Cl)c(Cl)c1)c1ccc(Br)cn1
plasma concentration (male C57BL/6 mice, plasma; intraperitoneal, 30 mg/kg, 4 h): 2.56 µg/mL

CC1(C)C(/C=C/C=C/C=C/C=C2\N(CCCCS(=O)(=O)O)c3ccc4ccccc4c3C2(C)C)=[N+](CCCCS(=O)(=O)[O-])c2ccc3ccccc3c21
fluorescence quantum yield (integrating sphere; glucose solution; 5% DMSO for RGD conjugate, excitation 780 nm): 1.5 ± 0.04%

Nc1ncc(-c2cnn(CCO)c2)c2scc(-c3ccc(NC(=O)Nc4cccc(F)c4)cc3)c12
AUC(0-24 h) (patients, plasma; oral, 480 mg twice weekly, day 15): 14.7 ± 5.22 µg·h/mL

COc1cc2c(cc1OC)C(Cc1ccc(OCc3ccccc3)c(OC)c1)N(CC(=O)NCc1ccccc1)CC2 (stereo not shown)
Kb (HCRTR1; calcium signal, antagonist, fluorescence): 0.399 µM

Cc1c(C(=O)NN2CCCCC2)nc(-c2ccc(Cl)cc2Cl)n1-c1ccc(OS(=O)(=O)CCC(F)(F)F)cc1
plasma concentration (LC-MS/MS; cynomolgus monkey 3; intravenous infusion, 2.0 mg/kg, 90 min, total, PET mid-point): 0.999 µM

O=C(Nc1c(Cl)c[n+]([O-])cc1Cl)c1ccc(OC(F)F)c(OCC2CC2)c1
elimination half-life (human adolescents, plasma; topical, 0.3% roflumilast cream once daily, 14 days): 67.2 h

Cn1cnc2c(F)c(Nc3ccc(Br)cc3Cl)c(C(=O)NOCCO)cc21
Vz/F (nude mice with A-375 tumours, plasma; oral, 10 mg/kg once daily, 7 days, steady state): 1.9 L/kg

CO/N=C1\C[C@]2(C[C@@H]3C[C@@H](C/C=C(\C)C[C@@H](C)/C=C/C=C4\CO[C@@H]5[C@H](O)C(C)=C[C@@H](C(=O)O3)[C@]45O)O2)O[C@H](/C(C)=C/C(C)C)[C@H]1C
elimination half-life (HPLC, non-compartmental; Corriedale lambs, parasitized, plasma; subcutaneous, 0.2 mg/kg, added: closantel 5 mg/kg subcutaneous): 103 h

COc1cc2c(cc1OC)C(Cc1ccc(OCCCCOc3ccccc3)c(OC)c1)N(CC(=O)NCc1ccccc1)CC2 (stereo not shown)
Kb (HCRTR1; calcium signal, antagonist, fluorescence): 0.385 µM

Oc1ccc(C(c2ccc(O)cc2)(C(F)(F)F)C(F)(F)F)cc1
elimination (k10) half-life (refers to: free compound; Hsd:Sprague Dawley rat female, plasma; oral gavage, 110 mg/kg single dose): 1.68 h

COc1cc(Nc2ncc3c(n2)-c2ccc(Cl)cc2C(c2c(F)cccc2OC)=NC3)ccc1C(=O)O
trough concentration (children, UGT1A1 extensive metabolizers, no grade ≥2 toxicity, plasma; oral, 80 mg/m2, day 4, median): 990 nM

O=S(=O)(c1cc(F)c(O)c2ncccc12)C1CCCC1
free concentration (rat Sprague-Dawley male, brain; oral, 10 mg/kg, 4 h): 0.0128 µM

CS(=O)(=O)Nc1ccc(C(=O)O[C@@H](Cc2c(Cl)c[n+]([O-])cc2Cl)c2ccc(OC(F)F)c(OCC3CC3)c2)cc1OCC1CC1
AUC(0-12h) (human, plasma; inhalation, 1200 µg twice daily, day 1, geometric mean): 0.0051 µg·h/mL

O=C(O)c1ccc2c(c1)C(=O)CCc1ccccc1C(=O)N2
kinetic solubility (nephelometry; aqueous buffer; 30 min, pH 6.5): > 0.1 mg/mL

CC(C)[C@H](NC(=O)[C@@H]1CCCN1C(=O)[C@H](CCCNC(=N)N)NC(=O)[C@H](CS)NC(=O)[C@H](Cc1c[nH]c2ccccc12)NC(=O)[C@H](CCCNC(=N)N)NC(=O)[C@@H](Cc1ccccc1)NC(=O)[C@H](Cc1c[nH]cn1)NC(=O)[C@H](CCC(=O)O)NC(=O)[C@H](CS)NC(=O)[C@H](CS)NC(=O)[C@H](CCCCN)NC(=O)[C@@H]1CC(=O)N[C@@H](CCCNC(=N)N)C(=O)N[C@@H]([C@@H](C)O)C(=O)N[C@@H](CC(=O)O)C(=O)N[C@H](Cc2ccc(O)cc2)C(=O)N1)C(N)=O [technetium-99m labelled]
tissue uptake (C57 mouse, female, B16/F1 melanoma, brain; intravenous, 2 h, added: NDP-MSH 10 µg co-injected): 0.08 ± 0.06 %ID/g

O=C1Nc2ccc(C(F)(F)F)cc2C(=O)CCc2ccccc21
kinetic solubility (nephelometry; aqueous buffer; 30 min, pH 6.5): 0.025 to 0.05 mg/mL (≈ 78.3 to 157 µM)

OC[C@H]1O[C@@H](c2ccc(F)c(Cc3cc4ccccc4s3)c2)[C@H](O)[C@@H](O)[C@@H]1O
AUC (male ICR mouse, liver; oral, 3 mg/kg, 24 h): 19.3 µg·h/mL

CCN1C(=O)CNc2ncc(-c3ccc(-c4nc[nH]n4)nc3C)nc21
AUC(0-12h) (human, plasma; oral, 10 mg twice daily, multiple doses): 0.383 µg·h/mL

colistin B methanesulfonate
volume of distribution (one-compartment PK model; rat; i.p., 20 mg/kg colistin base activity): 0.263 ± 0.0583 L/kg

O=C1N=C(N2CCOCC2)CN1c1ccc(Cl)cc1
AUC(0-inf) (beagle dog, both sexes, plasma; oral, 30 mg/kg, day 0, tablets, single dose): 101 µg·h/mL

CC(C)NC[C@@H](C(=O)N1CCN(c2ncnc3c2[C@H](C)C[C@H]3O)CC1)c1ccc(Cl)cc1
AUC(0-∞) (human, Severe hepatic function, plasma; oral, 100 mg single dose, NCI classification, geometric mean): 0.943 µg·h/mL

Cn1c(-c2ccc(C(N)=O)cc2F)nnc1C(C)(C)Oc1c(F)cc(Cl)cc1F
Cmax median (young Japanese adults, plasma; oral, 10 mg single dose, day 1, high-dose multiple-dose study): 0.0834 µg/mL

O=C(O)[C@H](c1ccccc1Cl)N1CCc2sccc2C1
deviation from nominal (HPLC-MS/MS; feline EDTA plasma; 24 h, -80 °C, storage stability): -3%

CCCCCCCCCCCCCNCC(=O)N(CC(=O)N(CCCCN)CC(=O)N(CCN)CC(=O)N(CC(N)=O)Cc1ccco1)Cc1ccco1
acetonitrile at elution (preparative RP-HPLC C18; water to acetonitrile gradient; 0.05% TFA in eluent; higher = more hydrophobic): 67.6%

COc1cc2ncnc(Nc3ccc(F)c(Cl)c3)c2cc1OCCCN1CCOCC1
volume of distribution (ICR mice, male, plasma; intravenous, 5 mg/kg, cassette dosing): 8.3 L/kg

C/C=C/C[C@@H](C)C(=O)[C@H]1C(=O)N[C@@H](C(C)C)C(=O)N(C)CC(=O)N(C)[C@@H](CC(C)C)C(=O)N[C@@H](C(C)C)C(=O)N(C)[C@@H](CC(C)C)C(=O)N[C@@H](C)C(=O)N[C@H](C)C(=O)N(C)[C@@H](CC(C)C)C(=O)N(C)[C@@H](CC(C)C)C(=O)N(C)[C@@H](C(C)C)C(=O)N1C
free plasma concentration (Sprague Dawley rat, plasma; intravenous infusion, 8.0 mg/h/kg, 4 h, 4.5 h constant infusion): 2.59 µg/mL

CC1(C)C2CC[C@]1(C)C(=O)/C2=C/c1cccs1
maximum hemolysis (human red blood cells; 10 to 300 µg/mL, 30 min): < 14%

CC(C)[C@H](NC(=O)[C@@H]1CCCN1C(=O)[C@H](CCCNC(=N)N)NC(=O)[C@H](CS)NC(=O)[C@H](Cc1c[nH]c2ccccc12)NC(=O)[C@H](CCCNC(=N)N)NC(=O)[C@@H](Cc1ccccc1)NC(=O)[C@H](Cc1c[nH]cn1)NC(=O)[C@H](CCC(=O)O)NC(=O)[C@H](CS)NC(=O)[C@H](CS)NC(=O)[C@H](CCCCN)NC(=O)[C@@H]1CC(=O)N[C@@H](CCCNC(=N)N)C(=O)N[C@@H](C)C(=O)N[C@@H](CC(=O)O)C(=O)N[C@H](Cc2ccc(O)cc2)C(=O)N1)C(N)=O [technetium-99m labelled]
tissue uptake (C57 mice, muscle; intravenous, 0.037 MBq, 0.5 h): 0.72 ± 0.18 %ID/g

Cc1nc2cccc(OCC(C)(C)C(=O)NC(C)C)c2c(N)c1C(=O)O
excreted dose (Sprague-Dawley rat, male, urine and feces; oral, 10 mg/kg, 72 h): 86.2%

CCS(=O)(=O)Nc1ccc(Oc2ccc(F)cc2F)c(-c2cn(C)c(=O)c3[nH]ccc23)c1
oral bioavailability (Sprague-Dawley rat, plasma; oral vs intravenous, 3 mg/kg oral, 1 mg/kg i.v.): 57%

CC(/C=C/C=C(\C)C(=O)O)=C\C=C\C=C(C)\C=C\C=C(/C)C(=O)O
solubility (shake flask; FaSSIF; 1 h, pH 6.5, 37 °C): 0.0032 mg/mL (≈ 9.74 µM)

CC1=C2C[C@H]3[C@@H](CC[C@@H]4C[C@H](NS(C)(=O)=O)CC[C@@]43C)[C@@H]2CC[C@@]2(C1)O[C@@H]1C[C@H](C)CN[C@H]1[C@H]2C
AUC(0-24) (patients, plasma; oral, 210 mg single, day -7, cycle 1): 1.92 µg·h/mL

CN[C@@H]1[C@H](O)[C@H](NC)[C@H]2O[C@]3(O)[C@H](O[C@@H]2[C@H]1O)O[C@H](C)C[C@H]3NC(=O)Cc1cc(Cl)c(F)cn1
parent remaining (glutathione conjugation; rat liver S9; 100 µM, 2 h, pH 7.4, added: glutathione 0.2 mM): 98.6%

C/C=C/C=C/C=C\CC/C=C/C(=O)NCC(C)(C)O
amount recovered, maximum (human ileostomy patients, ileal effluent; oral, 5 g TU-100, 4 h, no β-glucuronidase treatment): 10700 ng

CS(=O)(=O)OC[C@H](O)[C@@H](O)COS(C)(=O)=O
RBC/plasma partition coefficient (Wistar rat, female, red blood cells and plasma; intraperitoneal, 500 mg/kg, 1 h): 0.68 and 0.64 and 0.45

CC(C)[C@H](N)C(=O)NCCCS(=O)(=O)O
AUC(0-12) (human, plasma; oral, 340 mg capsule, day 14, fasted, multiple dosing): 13.8 ± 3.35 µg·h/mL

C[C@]1(c2nc3c(C(N)=O)cccc3[nH]2)CCCN1
AUC(0-12h) (human patients, plasma; oral, 40 mg, day -2, cycle 1): 1.76 µg·h/mL

N.N.N.N.N.N.N.N.N.N.N.N.N.N.[Cl-].[Cl-].[Cl-].[Cl-].[Cl-].[Cl-].[O-2].[O-2].[Ru+3].[Ru+3].[Ru+4]
chemical stability (UV absorbance; ND96 recording solution): stable

COc1cc(/C=C/C(=O)CC(=O)/C=C/c2ccc(O)c(OC)c2)ccc1O
aglycone fraction (C57BL/6J mice, bone marrow; oral, 500 mg/kg, 30 min; baseline: total): 30 to 44%

O=C([O-])CN(CC(=O)[O-])CC(=O)[O-].[Fe+3]
reduction potential vs NHE (square wave voltammetry; metal chelate; concentration not given, pH 7.4, anaerobic): 464 mV

C=CC(=C)CCC1(C)C(C)CC(O)C23C(=CC(OC(=O)/C=C/C=C/CCCCC)CC12)C(OC(C)=O)OC3OC(C)=O (stereo not shown)
haemolysis (haemolysis; 500 µM): 119%

C[C@@H](c1ncncc1F)[C@](O)(Cn1cncn1)c1ccc(F)cc1F
trough concentration (patients, hematological disorders, CYP2C19 NM with PPI or IM without PPI, plasma; 200 mg, 12 h, steady state, median, combined score 3): 1960 ng/mL

For quick reference, copied from above:
Cn1cnc2c(F)c(Nc3ccc(Br)cc3Cl)c(C(=O)NOCCO)cc21
Vz/F (nude mice with A-375 tumours, plasma; oral, 10 mg/kg once daily, 7 days, steady state): 1.9 L/kg

CO/N=C1\C[C@]2(C[C@@H]3C[C@@H](C/C=C(\C)C[C@@H](C)/C=C/C=C4\CO[C@@H]5[C@H](O)C(C)=C[C@@H](C(=O)O3)[C@]45O)O2)O[C@H](/C(C)=C/C(C)C)[C@H]1C
elimination half-life (HPLC, non-compartmental; Corriedale lambs, parasitized, plasma; subcutaneous, 0.2 mg/kg, added: closantel 5 mg/kg subcutaneous): 103 h

COc1cc2c(cc1OC)C(Cc1ccc(OCCCCOc3ccccc3)c(OC)c1)N(CC(=O)NCc1ccccc1)CC2 (stereo not shown)
Kb (HCRTR1; calcium signal, antagonist, fluorescence): 0.385 µM

Oc1ccc(C(c2ccc(O)cc2)(C(F)(F)F)C(F)(F)F)cc1
elimination (k10) half-life (refers to: free compound; Hsd:Sprague Dawley rat female, plasma; oral gavage, 110 mg/kg single dose): 1.68 h

COc1cc(Nc2ncc3c(n2)-c2ccc(Cl)cc2C(c2c(F)cccc2OC)=NC3)ccc1C(=O)O
trough concentration (children, UGT1A1 extensive metabolizers, no grade ≥2 toxicity, plasma; oral, 80 mg/m2, day 4, median): 990 nM
